Assay results collected from several papers.
Protocols differ between the studies behind these lines. Numbers after ± are the reported error.
UniProt Q8NB16, sequence (whole entry, looked up): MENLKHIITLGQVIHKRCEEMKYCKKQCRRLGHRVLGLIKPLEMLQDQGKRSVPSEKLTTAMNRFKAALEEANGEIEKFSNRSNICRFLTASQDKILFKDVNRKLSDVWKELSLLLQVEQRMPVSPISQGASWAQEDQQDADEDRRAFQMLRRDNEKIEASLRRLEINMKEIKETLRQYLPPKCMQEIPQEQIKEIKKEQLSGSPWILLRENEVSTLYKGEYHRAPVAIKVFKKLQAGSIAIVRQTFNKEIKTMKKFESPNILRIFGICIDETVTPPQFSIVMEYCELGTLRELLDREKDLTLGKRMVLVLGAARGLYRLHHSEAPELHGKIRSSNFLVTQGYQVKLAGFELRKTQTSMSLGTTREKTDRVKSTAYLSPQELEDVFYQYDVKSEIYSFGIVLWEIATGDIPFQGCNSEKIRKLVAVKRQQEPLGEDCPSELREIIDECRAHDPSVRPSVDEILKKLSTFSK
UniProt Q8IWQ3, sequence (whole entry, looked up): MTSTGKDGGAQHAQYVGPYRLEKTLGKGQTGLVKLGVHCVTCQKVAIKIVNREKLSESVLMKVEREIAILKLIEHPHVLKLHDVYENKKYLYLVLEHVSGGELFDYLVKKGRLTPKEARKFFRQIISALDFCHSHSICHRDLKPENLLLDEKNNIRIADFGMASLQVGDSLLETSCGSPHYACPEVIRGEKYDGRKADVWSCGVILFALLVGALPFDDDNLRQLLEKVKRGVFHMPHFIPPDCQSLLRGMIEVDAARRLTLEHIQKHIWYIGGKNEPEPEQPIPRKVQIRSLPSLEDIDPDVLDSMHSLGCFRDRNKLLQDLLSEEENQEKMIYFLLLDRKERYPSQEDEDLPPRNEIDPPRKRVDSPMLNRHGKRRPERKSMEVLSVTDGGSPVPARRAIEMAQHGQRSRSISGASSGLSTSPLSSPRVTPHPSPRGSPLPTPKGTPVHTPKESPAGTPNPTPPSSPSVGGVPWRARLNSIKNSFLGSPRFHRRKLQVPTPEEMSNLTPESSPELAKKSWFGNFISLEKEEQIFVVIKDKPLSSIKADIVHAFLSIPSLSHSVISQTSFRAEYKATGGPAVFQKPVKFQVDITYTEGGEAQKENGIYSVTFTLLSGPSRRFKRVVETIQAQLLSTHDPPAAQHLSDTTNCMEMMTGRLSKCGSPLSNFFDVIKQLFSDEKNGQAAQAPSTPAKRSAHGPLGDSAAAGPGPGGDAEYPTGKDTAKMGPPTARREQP
UniProt P35348, sequence (whole entry, looked up): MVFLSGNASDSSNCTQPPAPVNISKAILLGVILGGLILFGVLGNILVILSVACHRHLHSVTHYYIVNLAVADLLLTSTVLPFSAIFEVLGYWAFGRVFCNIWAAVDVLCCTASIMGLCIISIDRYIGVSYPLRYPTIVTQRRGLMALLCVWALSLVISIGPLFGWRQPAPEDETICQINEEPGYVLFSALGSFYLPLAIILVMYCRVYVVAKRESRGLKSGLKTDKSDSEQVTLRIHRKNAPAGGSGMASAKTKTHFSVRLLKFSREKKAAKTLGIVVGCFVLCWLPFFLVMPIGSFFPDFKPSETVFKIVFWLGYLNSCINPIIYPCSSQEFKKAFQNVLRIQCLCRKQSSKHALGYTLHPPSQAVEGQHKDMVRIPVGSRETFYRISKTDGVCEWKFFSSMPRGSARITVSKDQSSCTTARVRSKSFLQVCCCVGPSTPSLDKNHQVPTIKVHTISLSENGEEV
UniProt Q9UNU6, sequence (whole entry, unmodified, looked up): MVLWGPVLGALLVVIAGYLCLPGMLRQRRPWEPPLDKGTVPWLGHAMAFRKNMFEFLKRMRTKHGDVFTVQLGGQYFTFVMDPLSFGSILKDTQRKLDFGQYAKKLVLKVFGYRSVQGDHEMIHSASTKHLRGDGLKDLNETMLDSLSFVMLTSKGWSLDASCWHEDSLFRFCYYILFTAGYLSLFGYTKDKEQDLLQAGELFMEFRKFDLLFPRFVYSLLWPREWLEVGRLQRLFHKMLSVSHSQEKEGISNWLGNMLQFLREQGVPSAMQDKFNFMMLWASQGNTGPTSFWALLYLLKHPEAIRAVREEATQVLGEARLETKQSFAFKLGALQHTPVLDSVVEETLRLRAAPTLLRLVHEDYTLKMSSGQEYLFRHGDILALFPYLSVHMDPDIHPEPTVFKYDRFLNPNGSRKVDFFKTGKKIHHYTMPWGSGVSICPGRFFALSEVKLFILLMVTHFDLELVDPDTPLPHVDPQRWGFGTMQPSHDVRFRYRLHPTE
UniProt Q9Y271, sequence (whole entry, looked up): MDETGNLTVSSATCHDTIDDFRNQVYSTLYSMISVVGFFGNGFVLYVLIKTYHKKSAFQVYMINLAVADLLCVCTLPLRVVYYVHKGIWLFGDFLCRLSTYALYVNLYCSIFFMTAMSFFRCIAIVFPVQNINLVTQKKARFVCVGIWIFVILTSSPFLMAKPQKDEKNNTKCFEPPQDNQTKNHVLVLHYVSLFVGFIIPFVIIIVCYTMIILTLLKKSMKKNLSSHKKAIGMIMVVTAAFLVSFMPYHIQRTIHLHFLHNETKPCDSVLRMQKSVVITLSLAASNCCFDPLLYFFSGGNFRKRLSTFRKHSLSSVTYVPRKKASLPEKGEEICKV
UniProt P31749, sequence (whole entry, looked up): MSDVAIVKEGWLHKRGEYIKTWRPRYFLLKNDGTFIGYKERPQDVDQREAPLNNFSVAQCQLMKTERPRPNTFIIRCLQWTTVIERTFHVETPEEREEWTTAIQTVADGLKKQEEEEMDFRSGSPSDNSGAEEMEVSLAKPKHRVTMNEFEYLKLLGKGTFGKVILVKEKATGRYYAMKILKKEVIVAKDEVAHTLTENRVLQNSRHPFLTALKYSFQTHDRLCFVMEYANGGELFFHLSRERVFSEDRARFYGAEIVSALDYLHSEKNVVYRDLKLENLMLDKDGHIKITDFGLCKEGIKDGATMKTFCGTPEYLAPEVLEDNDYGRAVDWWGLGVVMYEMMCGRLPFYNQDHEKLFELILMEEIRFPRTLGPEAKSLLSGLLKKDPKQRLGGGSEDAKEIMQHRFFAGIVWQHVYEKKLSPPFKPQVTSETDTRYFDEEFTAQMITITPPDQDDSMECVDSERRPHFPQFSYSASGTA
UniProt P10275, sequence (whole entry, looked up): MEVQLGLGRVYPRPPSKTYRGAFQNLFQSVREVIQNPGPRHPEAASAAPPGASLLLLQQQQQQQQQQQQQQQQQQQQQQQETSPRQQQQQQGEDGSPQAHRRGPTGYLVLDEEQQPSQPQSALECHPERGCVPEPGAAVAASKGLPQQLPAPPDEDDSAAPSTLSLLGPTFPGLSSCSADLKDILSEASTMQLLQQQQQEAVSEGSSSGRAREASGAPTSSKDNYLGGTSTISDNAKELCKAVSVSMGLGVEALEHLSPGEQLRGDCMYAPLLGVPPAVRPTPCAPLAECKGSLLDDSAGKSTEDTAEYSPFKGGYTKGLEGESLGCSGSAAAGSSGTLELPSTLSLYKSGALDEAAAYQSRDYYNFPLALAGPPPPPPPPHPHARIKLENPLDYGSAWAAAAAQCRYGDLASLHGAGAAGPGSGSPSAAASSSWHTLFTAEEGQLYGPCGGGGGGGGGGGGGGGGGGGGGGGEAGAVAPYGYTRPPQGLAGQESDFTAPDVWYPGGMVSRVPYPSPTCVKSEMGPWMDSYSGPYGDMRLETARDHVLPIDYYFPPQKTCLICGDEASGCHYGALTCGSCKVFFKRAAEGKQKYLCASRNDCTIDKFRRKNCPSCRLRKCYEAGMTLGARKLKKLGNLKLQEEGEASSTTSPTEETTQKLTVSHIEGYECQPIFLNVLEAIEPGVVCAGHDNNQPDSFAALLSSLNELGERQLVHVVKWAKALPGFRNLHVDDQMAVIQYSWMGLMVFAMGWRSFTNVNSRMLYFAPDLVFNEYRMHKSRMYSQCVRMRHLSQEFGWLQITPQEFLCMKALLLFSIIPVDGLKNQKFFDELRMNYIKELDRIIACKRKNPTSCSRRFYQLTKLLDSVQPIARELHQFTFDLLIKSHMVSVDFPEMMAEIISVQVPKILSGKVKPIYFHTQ
UniProt Q8N568, sequence (whole entry, looked up): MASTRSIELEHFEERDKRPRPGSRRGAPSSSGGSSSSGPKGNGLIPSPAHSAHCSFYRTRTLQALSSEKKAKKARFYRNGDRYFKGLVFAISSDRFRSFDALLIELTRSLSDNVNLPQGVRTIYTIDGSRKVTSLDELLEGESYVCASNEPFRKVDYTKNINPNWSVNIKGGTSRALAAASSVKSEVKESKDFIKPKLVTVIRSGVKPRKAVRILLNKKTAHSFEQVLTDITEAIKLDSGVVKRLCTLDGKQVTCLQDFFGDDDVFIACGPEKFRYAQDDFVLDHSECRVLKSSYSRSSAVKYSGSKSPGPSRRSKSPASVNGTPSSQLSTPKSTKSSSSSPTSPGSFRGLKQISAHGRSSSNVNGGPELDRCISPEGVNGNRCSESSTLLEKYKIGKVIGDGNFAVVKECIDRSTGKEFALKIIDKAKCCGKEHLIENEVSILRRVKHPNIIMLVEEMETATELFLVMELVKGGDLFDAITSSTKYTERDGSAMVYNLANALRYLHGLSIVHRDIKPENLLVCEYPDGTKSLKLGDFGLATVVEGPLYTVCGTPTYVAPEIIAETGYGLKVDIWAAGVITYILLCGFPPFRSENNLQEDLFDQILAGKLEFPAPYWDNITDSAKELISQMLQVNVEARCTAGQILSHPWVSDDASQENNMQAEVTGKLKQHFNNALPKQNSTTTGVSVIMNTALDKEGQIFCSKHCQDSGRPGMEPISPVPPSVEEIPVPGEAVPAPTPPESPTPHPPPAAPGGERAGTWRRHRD

O=C(NCC1CCc2nccn2C1)c1cnc2ccccn12 (centres unmarked)
inhibition (Cholinesterase (BCHE, Homo sapiens, UniProt P06276); enzyme activity, inhibitor, Ellman; 10 µM): 25.4%

C[C@H](NCc1ccc(-c2ccc(C(F)(F)F)cc2)cc1)C(N)=O
inhibition (MKNK2 (Homo sapiens, UniProt Q9HBH9); cell-free assay, competition with immobilised ligand; 1 µM): 15%

CS(C)(=O)=Nc1ccc(-c2ccc(-c3nc4cc(O[C@@H]5CO[C@H]6[C@@H]5OC[C@H]6O)[nH]c4cc3F)cc2)cc1
inhibition (DCLK2 (Homo sapiens, UniProt Q8N568); enzyme activity, inhibitor; 10 µM): -27%

COc1ccc(F)cc1S(=O)(=O)Nc1cnc2c(c1)C(=O)NCCO2
inhibition (CXCR2 (Homo sapiens, UniProt P25025); ligand displacement, radioligand; 10 µM): 12%

CN(/N=C/c1ccccc1C(=O)O)c1nc(-c2ccccc2Cl)cs1
inhibition (BRSK2 (Homo sapiens, UniProt Q8IWQ3); enzyme activity, inhibitor; 1 µM): -15.8%

Cc1cc(Nc2nc(C[C@@]3(C(=O)O)CCN(Cc4cccc(Cl)c4F)[C@H](C)C3)cc(C)c2F)[nH]n1
inhibition (Androgen receptor (AR, Homo sapiens, UniProt P10275); inhibitor; 10 µM): 27%

Cc1ccc2c(n1)c(-c1cccc(S(C)(=O)=O)c1)c(C)n2C/C(F)=C/CN
inhibition (Adra1b (Rattus norvegicus, UniProt P15823); ligand displacement, radioligand; 10 µM): 17%

C=CC(=O)Nc1cc(-c2nn(C3CCC(N4CCN(C(C)=O)CC4)CC3)c3ncnc(N)c23)ccc1Oc1ccccc1 (centres unmarked)
inhibition (STK32C (Homo sapiens, UniProt Q86UX6); inhibitor, KiNativ profiling; biochemical; 2 µM): -10.8%

N[C@H](C(=O)N1CCCC1)C1CCN(c2nccc3c(-c4ncc(Cl)cc4Cl)cccc23)CC1
inhibition (Aurora kinase A (AURKA, Homo sapiens, UniProt O14965); kinase activity, inhibitor; 10 µM, added: ATP 1 mM): 6.5%

CC(C)[C@H]1NC(=O)C[C@H]2/C=C/CCSSC[C@@H](NC1=O)C(=O)N[C@H](Cc1cccc3ccccc13)C(=O)NCC(=O)O2
inhibition (SPHK2 (Homo sapiens, UniProt Q9NRA0); enzyme activity, inhibitor; 10 µM): 5.8%

O=C1NC2(CC2)COc2ncc(F)cc2[C@H]2COCCN2c2ccn3ncc1c3n2
organ-to-body weight ratio (Sprague-Dawley rat, male, heart; oral, 20 mg/kg/day, 4 weeks dosing, end of recovery): 0.354 ± 0.017%

CN[C@@H]1[C@H](O)[C@H](NC)[C@H]2O[C@]3(O)[C@H](O[C@@H]2[C@H]1O)O[C@H](C)C[C@H]3NC(=O)Cc1ccc(Cl)cn1
inhibition (CYSLTR1 (Homo sapiens, UniProt Q9Y271); ligand displacement, radioligand; 10 µM): 13%

O=C(O)c1ccccc1/C=N/Nc1nc(-c2ccccc2Cl)cs1
inhibition (AKT1 (Homo sapiens, UniProt P31749); kinase activity; 1 µM): 1.03%

C/C(=N\OCCCN1CCCCC1)c1ccc(C(F)(F)F)cc1
inhibition (ADRA1A (Homo sapiens, UniProt P35348); antagonist, IP-One; 10 µM): 4.57%

CN(C)[C@H]1C[C@@]23CC[C@@]4(O2)C(=CC[C@]2(C)[C@@H](c5ccc6ccncc6c5)CC[C@H]24)C=C3[C@@H](O)[C@@H]1O
inhibition (MLKL (Homo sapiens, UniProt Q8NB16); ATP probe labelling, inhibitor, KiNativ profiling; 0.1 µM): -3.5%

C[C@]12C(c3cccnc3)=C[C@H]3[C@@H](CCC4=C[C@H](O)CC[C@@]43C)[C@@H]1CC[C@@H]2O
inhibition (7-alpha-hydroxycholest-4-en-3-one 12-alpha-hydroxylase (Homo sapiens, UniProt Q9UNU6, W281F); inhibitor; 80 µM, added: 7α-hydroxycholest-4-en-3-one): 87%

CCc1nnc(-c2c(OC)cc(-c3cnc4cc(-c5cnn(C)c5)ccn34)cc2OC)o1
inhibition (SLC6A4 (Homo sapiens, UniProt P31645); antagonist radioligand, radioligand binding; 10 µM, SafetyScreen44 5-HT transporter): -4%

Some of these lines once more:
O=C(NCC1CCc2nccn2C1)c1cnc2ccccn12 (centres unmarked)
inhibition (Cholinesterase (BCHE, Homo sapiens, UniProt P06276); enzyme activity, inhibitor, Ellman; 10 µM): 25.4%

CCc1nnc(-c2c(OC)cc(-c3cnc4cc(-c5cnn(C)c5)ccn34)cc2OC)o1
inhibition (SLC6A4 (Homo sapiens, UniProt P31645); antagonist radioligand, radioligand binding; 10 µM, SafetyScreen44 5-HT transporter): -4%
